Measurements of several laboratories.
Every numbered part comes from another study and shows a few of its results, in no order. Positions count from the first letter of the parent shown.

Series 1
Target: RNA binding protein fox-1 homolog 2, RRM domain, GST-SBP tag (RBFOX2, Homo sapiens, UniProt O43251-10, residues 100-194)
Technique: RNA Bind-n-Seq
Form: RNA
Sample: in vitro
Concentration: 365 nM
Notes: natural RNA segment, single round, ends assumed
Reference: no-protein control
Direction: higher = stronger binding
Residues (chain): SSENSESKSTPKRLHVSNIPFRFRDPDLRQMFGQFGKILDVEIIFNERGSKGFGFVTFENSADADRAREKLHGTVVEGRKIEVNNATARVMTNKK
`GGGAGUUCUACAGUCCGACGAUCCUGUUUAGCUUGGGAAGCCAAAAGUGGAUGCCUGUGUUCAUGGGCCUCCCCUGGGAGUUAGUGAUUUGGGGGACCAGCCUCACUGCAGACUCCAGGCUCUGACAGGUAGUUGGAAUUCUCGGGUGCCAA`: “RBNS enrichment (R)” 0.461.
`GGGAGUUCUACAGUCCGACGAUCGAAUGUUUUAGAGAAGGAAAUUCAAAAAAUGUUGUAACUGAAAGCACUGUUGAAUAUGGGUAUCGGCUUUCUUUUUCACUUUGACUCUUAACAUUAUCAGUCAACUUCCAUGGAAUUCUCGGGUGCCAA` — result for “RBNS enrichment (R)”: 0.642.
Under “RBNS enrichment (R)”, `GGGAGUUCUACAGUCCGACGAUCUUGAGGUUUAACUAACAAGGAUUUACUUCCAGUAACCUGACAUAUCUCAUCUUGUCAGAGCCCUAUGUGCUAUAUCCACAUUUAUAUAUAUUUUUUCUAGCCUAUGUAGUUGGAAUUCUCGGGUGCCAA` is recorded as 1.13.
Under “RBNS enrichment (R)”, `GGGAGUUCUACAGUCCGACGAUCCAGGGUUGGAGUGGGGGUUGGUCCCUCAGGGGCUCAAGUUCCUUCUCUCAGCUGGGACAGGAGGUGGCUGCUCAGUCCUAGAGUAGCUCUAUGGGUGAAACCGGCUCUAGUGGAAUUCUCGGGUGCCAA` is recorded as 0.239.

Series 2
Target: CCNB3, cyclin fold, Cln2 fusion (human)
Technique: yeast growth competition, sequencing
Sample: yeast
Notes: strong parent motif
Reference: not given
Direction: higher = stronger binding
Starting sequence: BRCA2 docking peptide (human); PSIKRNLLNEFDR
`D12T`: “normalised enrichment score” 0.528.
`N9T`: “normalised enrichment score” 1.21.
`S2N` — result for “normalised enrichment score”: 1.18.
`L7H` — result for “normalised enrichment score”: -0.105.

Series 3
Target: Histone acetyltransferase KAT6A, both winged helices, GST fusion (KAT6A, Homo sapiens, UniProt Q92794, residues 1-181)
Technique: protein binding microarray
Form: double-stranded DNA, one strand shown
Sample: in vitro
Concentration: not given
Notes: 8-mer, flanks averaged, mean of 2 arrays, mostly near background
Reference: not given
Direction: higher = stronger binding
Residues (chain): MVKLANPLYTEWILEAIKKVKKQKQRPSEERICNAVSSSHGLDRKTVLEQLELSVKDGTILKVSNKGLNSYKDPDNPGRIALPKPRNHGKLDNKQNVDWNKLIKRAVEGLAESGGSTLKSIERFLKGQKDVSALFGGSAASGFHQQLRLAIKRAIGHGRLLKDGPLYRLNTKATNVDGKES
`AGAAAACC` has an E-score of -0.0665.
With `AAGTGGTA` the E-score was -0.223.
`GCAATGAA` has an E-score of 0.0385.
`AAGGTTGG` gave an E-score of -0.0554.

Other studies, line by line
For `PhoQ, residues 284 288 289 292 302 303 WSHMKI`, the fold induction was 1.77 (PhoP, residues 12 14 15 18 19 NQAHL (Escherichia coli, UniProt P23836); Sort-seq, measured: YFP reporter; E. coli; PhoQ-PhoP variant library, with: 10 µM Mg2+; reference: high Mg2+ state, higher = stronger signaling).

Repeated from above (series 2):
`S2N` — result for “normalised enrichment score”: 1.18.
